# Measured values pooled from the literature.
# Protocols differ between the studies behind these lines.
# Target: 5-hydroxytryptamine receptor 2A (HTR2A, Homo sapiens, UniProt P28223)
# Sequence of UniProt P28223 (whole entry, looked up): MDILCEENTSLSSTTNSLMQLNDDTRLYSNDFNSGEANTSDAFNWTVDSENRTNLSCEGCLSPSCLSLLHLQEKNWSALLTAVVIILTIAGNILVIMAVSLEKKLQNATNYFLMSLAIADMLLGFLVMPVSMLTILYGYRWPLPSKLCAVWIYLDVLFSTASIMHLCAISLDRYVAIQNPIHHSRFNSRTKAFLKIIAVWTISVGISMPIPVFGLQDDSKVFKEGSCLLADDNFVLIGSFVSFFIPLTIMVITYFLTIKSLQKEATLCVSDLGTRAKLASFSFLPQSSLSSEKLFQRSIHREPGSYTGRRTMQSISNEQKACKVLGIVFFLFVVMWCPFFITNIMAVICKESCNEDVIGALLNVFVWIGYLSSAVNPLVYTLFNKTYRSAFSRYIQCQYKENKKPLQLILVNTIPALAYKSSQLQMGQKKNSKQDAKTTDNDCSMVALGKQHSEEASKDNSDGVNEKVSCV
SMILES,effect on,action,method,setting,endpoint,value
COc1c(O)cccc1C(=O)C1CCN(CCc2ccc(F)cc2)CC1,ligand displacement,,radioligand,,Ki,1.6 nM
CN1CCC=C(c2cc(F)cc3[nH]ccc23)C1,ligand displacement,,radioligand,cell membranes,Ki,207 nM
C/C=C1/CN2CCc3c([nH]c4ccccc34)[C@@H]2C[C@@H]1/C(=C\OC)C(=O)OC,inositol phosphate,antagonist,,,IC50,2310 nM
"CC1(CCN2CCc3ccccc3C2)Cc2cc(Cl)ccc2C1=O (single isomer, unassigned)",ligand displacement,,radioligand,,Ki,729 nM
Cc1cc(C2=CCN(CC3OCCO3)CC2)cc([N+](=O)[O-])c1N,calcium signal,agonist,,,EC50,1150 nM
COc1c(OCCOCCOCCOCCOc2cccc(C(=O)C3CCN(CCc4ccc(F)cc4)CC3)c2OC)cccc1C(=O)C1CCN(CCc2ccc(F)cc2)CC1,ligand displacement,,radioligand,,Ki,5.8 nM
COc1ccc2[nH]cc(CC(C)N)c2c1 (stereo not shown),ligand displacement in cells,,radioligand,,Ki,3.12 nM
C/C(=N\OCCCN1CCCCC1)c1ccc(C(F)(F)F)cc1,inositol phosphate,antagonist,,,IC50,1620 nM
COc1c(OCCOCCOCCOCCOCCOc2cccc(C(=O)C3CCN(CCc4ccc(F)cc4)CC3)c2OC)cccc1C(=O)C1CCN(CCc2ccc(F)cc2)CC1,phosphorylation in cells,antagonist,,,IC50,98.2 nM
COc1cc(CCN)c(OC)cc1Cl,ligand displacement in cells,,radioligand,,Ki,13 nM
CC(=O)Oc1cccc2[nH]cc(CC[N+](C)(C)C)c12,ligand displacement,,radioligand,cell membranes,Ki,> 10000 nM
COc1cc(C(CN)OC)c(OC)cc1C (stereo not shown),ligand displacement in cells,,radioligand,,Ki,1.91 nM
CN(CCc1ccc(O)c(Br)c1)CCc1nccs1,ligand displacement,,radioligand,cell membranes,Ki,96 nM

# Repeated from above:
SMILES,effect on,action,method,setting,endpoint,value
CC(=O)Oc1cccc2[nH]cc(CC[N+](C)(C)C)c12,ligand displacement,,radioligand,cell membranes,Ki,> 10000 nM
